Measured values gathered from unrelated publications.
Every numbered part comes from another study and shows a few of its results, in no order. Several values in a cell are separate wells, animals, samples, runs or records.

Study 1 — cell line: Huh-7; concentration: 10 µM; time: 24 h; measurement: viability
C=C(CC)C(=O)c1ccc(OCC(=O)O)c(Cl)c1Cl: 95.8%
CCN(CC)CCNC(=O)c1ccc(NC(C)=O)cc1: 98%
C[C@]12CC[C@@H]3c4ccc(OC(=O)c5ccccc5)cc4CC[C@H]3[C@@H]1CC[C@@H]2O: 93.6%

Study 2 — species: mouse; medium: microsomes or S9; concentration: 2 µM; time: 0.5 h; measurement: remaining compound
Cc1nn(CCOC(=O)c2ccoc2)c2ncc(Br)cc12: 7.32%
Cc1ccn(-c2ccc(NS(=O)(=O)c3ccc(C4CNC(=O)C4)cc3)cc2)n1 (stereo not shown): > 100%
Cc1n[nH]c(-c2ccc(O)cc2O)c1Oc1ccc(Cl)cc1: 66.8%
c1ccc(Oc2cccc(CNc3ccc4nnnn4n3)c2)cc1: 0.0229%

Study 3 — cell line: mouse MPNST tumor cells; method: high-content nuclear imaging; refers to: cell number; concentration: 10 µM; time: 12 h; setting: mean of 2 replicates; relative to: plate mean; reading: higher = more cells; measurement: nuclei count
CNC(=O)Nc1ccc2c(c1)CC[C@@]21OC(=O)N(CC(=O)N(Cc2ccc(F)cc2)[C@@H](C)C(F)(F)F)C1=O: 3.75 z-score and 6.49 z-score
Cc1c(OCC(F)(F)F)ccnc1C[S+]([O-])c1nc2ccccc2[nH]1 (stereo not shown): 0.633 z-score and 0.817 z-score
CC(C)(Sc1cc(C(C)(C)C)c(O)c(C(C)(C)C)c1)Sc1cc(C(C)(C)C)c(O)c(C(C)(C)C)c1: 0.161 z-score and 0.898 z-score
COc1ccc(S(=O)(=O)N2c3ccc(Cl)cc3[C@](O)(c3ccccc3Cl)[C@@H]2C(=O)N2CCC[C@H]2C(N)=O)cc1OC: 1.11 z-score

Study 4 — observed: ligand displacement; concentration: 10 µM; measurement: inhibition
Target: Alpha-1D adrenergic receptor (ADRA1D, Homo sapiens, UniProt P25100)
Sequence of UniProt P25100 (whole entry, looked up): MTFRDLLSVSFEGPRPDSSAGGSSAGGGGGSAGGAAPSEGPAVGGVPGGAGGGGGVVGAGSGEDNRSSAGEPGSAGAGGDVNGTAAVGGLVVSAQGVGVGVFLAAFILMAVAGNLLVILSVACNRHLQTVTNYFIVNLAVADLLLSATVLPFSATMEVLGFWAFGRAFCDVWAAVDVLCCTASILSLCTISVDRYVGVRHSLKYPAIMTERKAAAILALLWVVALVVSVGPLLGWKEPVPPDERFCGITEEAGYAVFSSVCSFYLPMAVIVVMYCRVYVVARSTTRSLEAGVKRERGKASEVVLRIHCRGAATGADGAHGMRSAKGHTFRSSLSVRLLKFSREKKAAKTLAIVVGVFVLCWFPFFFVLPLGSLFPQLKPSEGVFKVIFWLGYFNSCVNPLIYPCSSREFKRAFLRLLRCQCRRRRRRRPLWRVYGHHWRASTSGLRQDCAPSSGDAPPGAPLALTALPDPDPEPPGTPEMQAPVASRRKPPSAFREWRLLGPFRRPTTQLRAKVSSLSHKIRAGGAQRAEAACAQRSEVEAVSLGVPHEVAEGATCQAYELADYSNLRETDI
COc1cc(-c2cn(C3CCc4c(F)cccc4N(CC(F)(F)F)C3=O)nn2)ccc1-n1cnc(C)c1 (stereo not shown): 2.11%
CCC(F)(F)c1cc(N2CCC(S(C)(=O)=O)CC2)nc2sc(C(N)=O)c(N)c12: 36.7%
Nc1cnc(N2CCc3cc(S(=O)(=O)Nc4c(F)cc(Cl)cc4F)cc(N4CCCC4=O)c32)nc1: -2.31%
NS(=O)(=O)c1cc(NC(=O)Cc2ccccc2)ccc1Oc1cccc(Cl)c1: 2.32%
NC(=O)c1ccc2nc(-c3ccc(C4(N)CCC4)cc3)c(-c3ccccc3)n2n1: 37.8%
Cc1noc([C@H]2C[C@@H](c3ccc(C(F)(F)F)cc3)CN(C(=O)N3CCS(=O)(=O)C3)C2)n1: -1.84%
O=S(=O)(NC1CCC(c2cc(F)ccc2F)(S(=O)(=O)c2ccc(Cl)cc2)CC1)C(F)(F)F (stereo not shown): 0.882%
CNC(=O)Nc1ccc2c(c1)CC[C@]21OC(=O)N(CC(=O)N(Cc2ccc(F)cc2)[C@@H](C)C(F)(F)F)C1=O: -1.58%
Cc1ccc(-c2cnc([C@@]3(O)CC[C@H](C(=O)O)C(C)(C)C3)s2)cc1Nc1cccc(C(F)(F)F)n1: -2.32%
Nc1nc(NCc2ccccc2)nc(-c2cccc(CO)c2)n1: -8.75%
O=C(NS(=O)(=O)c1ccc(NCC2CCOCC2)c([N+](=O)[O-])c1)c1ccc(N2CCN(Cc3ccc(C(F)(F)F)cc3-c3ccc(Cl)cc3)CC2)cc1Oc1cnc2[nH]ccc2c1: -26.4%
CC(=O)Nc1ncc(CN2CCC[C@H](Cc3cc(C)nc(C)c3)C2)s1: 8.3%
Cc1ccccc1Oc1cc(-n2c(=O)cc(C(F)(F)F)[nH]c2=O)c2ccccc2c1Cl: -5.48%
COc1ccc2cc(OCC3(C(=O)O)CN(C(=O)c4ccc(F)cc4)C3)ccc2c1: -3.76%
C[C@H](c1ccnc(Nc2nc3ccc(-c4cc(N(C)C)ncn4)cc3[nH]2)c1)N1CCN(C(=O)CC(F)(F)F)CC1: 20.2%

Study 5 — cell line: HaCaT; concentration: 100 µM; time: 36 h; measurement: viability
CNCC[C@@H](Oc1ccccc1C)c1ccccc1: 5.43%
Cc1cc(C2CCCCC2)n(O)c(=O)c1: 8.05%
C[n+]1cc2c3c(ccc2c2ccc4cc5c(cc4c21)OCO5)OCO3: 4.46%
O=c1c(-c2ccc(O[C@@H]3O[C@H](CO)[C@@H](O)[C@H](O)[C@H]3O)cc2)coc2cc(O)cc(O)c12: 8.77%
COc1ccccc1OCC(O)CN1CCN(CC(=O)Nc2c(C)cccc2C)CC1 (stereo not shown): 83.4%

Some of these lines once more (study 3):
CC(C)(Sc1cc(C(C)(C)C)c(O)c(C(C)(C)C)c1)Sc1cc(C(C)(C)C)c(O)c(C(C)(C)C)c1: 0.161 z-score and 0.898 z-score
COc1ccc(S(=O)(=O)N2c3ccc(Cl)cc3[C@](O)(c3ccccc3Cl)[C@@H]2C(=O)N2CCC[C@H]2C(N)=O)cc1OC: 1.11 z-score
Cc1c(OCC(F)(F)F)ccnc1C[S+]([O-])c1nc2ccccc2[nH]1 (stereo not shown): 0.633 z-score and 0.817 z-score
CNC(=O)Nc1ccc2c(c1)CC[C@@]21OC(=O)N(CC(=O)N(Cc2ccc(F)cc2)[C@@H](C)C(F)(F)F)C1=O: 3.75 z-score and 6.49 z-score
